Results pooled from the literature.
Organism: Candida albicans

CC[C@H](C)[C@H](NC(=O)[C@H](CC(C)C)NC(=O)[C@H](C)NC(=O)[C@H](CO)NC(=O)[C@H](CCCNC(=N)N)NC(=O)[C@@H](N)CO)C(=O)N[C@H](C(=O)N[C@@H](Cc1c[nH]cn1)C(=O)N[C@@H](CCC(N)=O)C(=O)N[C@@H](CCCNC(=N)N)C(=O)N[C@@H](CC(C)C)C(=O)N[C@@H](Cc1ccccc1)C(N)=O)C(C)C gave an MIC of over 400 mg/L (broth microdilution; RPMI MOPS-buffered).
The MIC of CC[C@H](C)[C@@H]1NC(=O)CNC(=O)[C@H](CCCCN)NC(=O)[C@H](C)NC(=O)[C@H](CCC(=O)O)NC(=O)[C@H](Cc2ccccc2)NC(=O)[C@H](CO)NC(=O)[C@H](CC(C)C)NC(=O)[C@H](C(C)C)NC(=O)[C@H](CC(=O)O)NC(=O)[C@@H](NC(=O)[C@@H](NC(=O)[C@@H](N)C(C)C)[C@@H](C)O)CSSC[C@@H]2NC(=O)[C@H](CO)NC(=O)CNC(=O)CNC(=O)[C@H](CCCCN)NC(=O)[C@H](CCCCN)NC(=O)[C@H](CCCNC(=N)N)NC(=O)[C@H](CC(C)C)NC(=O)[C@H](C)NC(=O)[C@H]([C@@H](C)CC)NC(=O)[C@H](CSSC[C@@H](C(=O)N[C@@H](CCCNC(=N)N)C(=O)N[C@@H](CC(N)=O)C(=O)O)NC(=O)[C@H](C(C)C)NC(=O)[C@H](C)NC(=O)[C@H](C(C)C)NC(=O)CNC(=O)[C@H](CC(N)=O)NC(=O)[C@H](CCC(N)=O)NC2=O)NC(=O)[C@H](Cc2c[nH]cn2)NC(=O)[C@H](CC(C)C)NC(=O)[C@H](C)NC(=O)[C@H](C)NC(=O)[C@H](C)NC(=O)[C@H](CO)NC(=O)[C@H](Cc2c[nH]cn2)NC(=O)[C@H](CC(N)=O)NC(=O)[C@H](C(C)C)NC(=O)[C@H](C)NC1=O is reported as 12.5 µM (broth microdilution; ATCC 90028; 28 °C).
O=[N+]([O-])[O-].S=c1[nH]cnc2[nH]cnc12.[Ag+].c1ccc(P(c2ccccc2)c2ccccc2)cc1.c1ccc(P(c2ccccc2)c2ccccc2)cc1 gave an MIC of 50 mg/L (agar dilution; MTCC 227, Mueller Hinton agar; 24 h, 25 °C).
For CC[C@H](C)[C@H](NC(=O)[C@H](CC(C)C)NC(=O)[C@H](CC(=O)O)NC(=O)[C@H](CO)NC(=O)[C@H](CCCNC(=N)N)NC(=O)[C@@H](N)CO)C(=O)N[C@H](C(=O)N[C@@H](Cc1c[nH]cn1)C(=O)N[C@@H](CCC(N)=O)C(=O)N[C@@H](CCCNC(=N)N)C(=O)N[C@@H](CC(C)C)C(=O)N[C@@H](Cc1ccccc1)C(N)=O)C(C)C, the MIC was over 400 mg/L (broth microdilution; RPMI MOPS-buffered).
The MIC of O=C(NCCNCCO)c1cn(Cc2ccccc2)c2cc(OCc3ccc(C(F)(F)F)cc3)c(Cl)cc2c1=O is reported as over 32 mg/L (ATCC 90028; ≥80% growth inhibition).
For CC[C@H](C)[C@@H]1NC(=O)CNC(=O)[C@H](CCCCN)NC(=O)[C@H](C)NC(=O)[C@H](CCC(=O)O)NC(=O)[C@H](Cc2ccccc2)NC(=O)[C@H](CO)NC(=O)[C@H](CC(C)C)NC(=O)[C@H](C(C)C)NC(=O)[C@H](CC(=O)O)NC(=O)[C@@H](NC(=O)[C@@H](NC(=O)[C@@H](N)C(C)C)[C@@H](C)O)CSSC[C@@H]2NC(=O)[C@H](CO)NC(=O)CNC(=O)CNC(=O)[C@H](CCCCN)NC(=O)[C@H](CCCCN)NC(=O)[C@H](CCCNC(=N)N)NC(=O)[C@H](CC(C)C)NC(=O)[C@H](C)NC(=O)[C@H]([C@@H](C)CC)NC(=O)[C@@H]3CSSC[C@@H](C(=O)N[C@@H](CCCNC(=N)N)C(=O)N[C@@H](CC(N)=O)C(=O)O)NC(=O)[C@H](C(C)C)NC(=O)[C@H](CSSC[C@H](NC(=O)[C@H](C)NC(=O)[C@H](CO)NC(=O)[C@H](Cc4c[nH]cn4)NC(=O)[C@H](CC(N)=O)NC(=O)[C@H](C(C)C)NC(=O)[C@H](C)NC1=O)C(=O)N[C@@H](C)C(=O)N[C@@H](CC(C)C)C(=O)N[C@@H](Cc1c[nH]cn1)C(=O)N3)NC(=O)[C@H](C(C)C)NC(=O)CNC(=O)[C@H](CC(N)=O)NC(=O)[C@H](CCC(N)=O)NC2=O, the MIC was 10 µM (broth microdilution; ATCC 90028; 28 °C).
For CC(C)[C@@H](CC(=O)N[C@@H](CCCNC(=N)N)CC(N)=O)NC(=O)[C@H]1CCCC[C@@H]1NC(=O)C[C@H](CCCNC(=N)N)NC(=O)C[C@@H](NC(=O)[C@H]1CCCC[C@@H]1NC(=O)C[C@H](CCCNC(=N)N)NC(=O)C[C@@H](NC(=O)[C@H]1CCCC[C@@H]1N)C(C)C)C(C)C, the MIC was 8 mg/L (broth microdilution; SC5314; 48 h, pH 7.2, 35 °C).
The MIC of CC[C@H](C)[C@H](NC(=O)[C@H](CC(=O)O)NC(=O)[C@H](Cc1ccccc1)NC(=O)[C@H](CC(C)C)NC(=O)CN)C(=O)N[C@H](C(=O)N[C@@H](CCCCN)C(=O)N[C@@H](CCCCN)C(=O)N[C@H](C(=O)N[C@@H](CC(C)C)C(=O)N[C@@H](CCCCN)C(=O)N[C@@H](CC(C)C)C(=O)N[C@@H](CC(C)C)C(=O)N[C@@H](CCCCN)C(N)=O)C(C)C)C(C)C is reported as over 20 µM (broth microdilution OD530; ATCC 90028, yeast nitrogen base; 24 h, 35 °C).
The MIC of CC[C@H](C)[C@H](NC(=O)[C@H](CCC(N)=O)NC(=O)[C@@H]1CCCN1C(=O)[C@@H](NC(=O)[C@@H](NC(=O)[C@H](Cc1ccccc1)NC(=O)[C@H](C)NC(=O)[C@H](C)NC(=O)[C@H](CC(C)C)NC(=O)[C@H](CCCNC(=N)N)NC(=O)[C@H](C)NC(=O)[C@H](CC(C)C)NC(=O)[C@H](CC(C)C)NC(=O)CNC(=O)[C@@H](NC(=O)[C@@H](N)Cc1ccccc1)C(C)C)C(C)C)[C@@H](C)CC)C(=O)N[C@H](C(=O)N[C@@H](CCCCN)C(=O)N[C@@H](CCCNC(=N)N)C(=O)N[C@@H](Cc1ccccc1)C(=O)N[C@@H](CCC(N)=O)C(=O)N[C@@H](CCCCN)C(=O)N[C@@H](CCCCN)C(=O)N[C@@H](CC(N)=O)C(N)=O)C(C)C is reported as 6.25 to 12.5 µM (ATP luminescence; FH2173; 48 h).
CC(C)C[C@H](NC(=O)[C@H](CCCNC(=N)N)NC(=O)[C@H](CCC(N)=O)NC(=O)[C@H](Cc1c[nH]cn1)NC(=O)[C@@H](NC(=O)[C@H](CCCNC(=N)N)NC(=O)[C@H](CC(C)C)NC(=O)[C@H](CCC(=O)O)NC(=O)[C@H](CO)NC(=O)[C@H](CCCNC(=N)N)NC(=O)[C@@H](N)CO)C(C)C)C(=O)N[C@@H](Cc1ccccc1)C(N)=O gave an MIC of over 400 mg/L (broth microdilution; RPMI MOPS-buffered).
With CC[C@@H](CC(=O)N[C@@H](CCCNC(=N)N)CC(=O)N[C@H]1CCCC[C@@H]1C(=O)N[C@@H](CC)CC(=O)N[C@@H](CCCNC(=N)N)CC(=O)N[C@H]1CCCC[C@@H]1C(=O)N[C@@H](CC)CC(=O)N[C@@H](CCCNC(=N)N)CC(N)=O)NC(=O)[C@H]1CCCC[C@@H]1NC(=O)C[C@@H](N)Cc1ccc(O)cc1 the MIC was 16 mg/L (broth microdilution; SC5314; 48 h, pH 7.2, 35 °C).
Cc1ccc(C2OC(c3ccc(C)cc3)C(C)C(=NOCc3cn(-c4ccccc4)nn3)C2C)cc1 (stereo not drawn) gave an MIC of 25 mg/L (microbial growth).
O=C(NCCNCCO)c1cn(Cc2ccccc2)c2cc(Cl)c(OCc3ccc(Cl)cc3)cc2c1=O has an MIC of over 32 mg/L (ATCC 90028; ≥80% growth inhibition).
For CC[C@H](C)[C@H](NC(=O)CNC(=O)[C@@H](NC(=O)[C@@H](N)Cc1ccccc1)[C@@H](C)CC)C(=O)N[C@@H](CCSC)C(=O)N[C@@H](C)C(=O)N[C@H](C(=O)N[C@@H](CC(C)C)C(=O)N[C@@H](C)C(=O)N[C@@H](CO)C(=O)N[C@@H](CC(C)C)C(=O)N[C@H](C(=O)N[C@H](C(=O)N1CCC[C@H]1C(=O)N[C@@H](CCCCN)C(=O)N[C@@H](CC(C)C)C(=O)N[C@H](C(=O)N[C@@H](CCC(=O)O)C(=O)N[C@@H](CCCCN)C(=O)N[C@H](C(=O)N[C@@H](CCCCN)C(=O)N[C@@H](CCC(N)=O)C(=O)N[C@@H](C)C(=O)N[C@@H](CCCNC(=N)N)C(N)=O)[C@@H](C)CC)[C@@H](C)CC)[C@@H](C)CC)C(C)C)[C@@H](C)O, the MIC was 50 µM (ATP luminescence; FH2173; 48 h).
Under MIC, CCCCCCCCCCCCC(=O)O.O=C1CCCC2C3CCCN4CCCC(CN12)C34 (stereo not drawn) is recorded as “inactive” (broth dilution; ATCC 10231).
